Measured values from different studies.
Values joined by “and” are separate records of one study, mostly repeats; a detail may differ. Numbers after ± are the reported error.

SMILES	target or system	assay	test system	setting	how to read	endpoint	value
O=C1Nc2cc3[nH]nc(-c4ccncc4)c3cc2CN1Cc1ccccc1	–	RECIST v1.1	human, relapsed or refractory advanced solid tumours	intravenous, 5.4 mg/kg, pooled schedules	–	partial response, best response	0%
Cn1cc(-c2ccc(-c3cncc(Cl)c3N3CCC4(CCNC4=O)CC3)cc2)cn1	COLO 205	gene expression, microarray, item: ICAM1 mRNA	–	concentration not given, 2 h	baseline: untreated cells	log2 fold change	2.46
C[C@H]1O[C@@H](O[C@H]2CC[C@@]3(C)[C@@H](CC[C@]4(C)[C@@H]3C=C[C@]35OC[C@@]6(CCC(C)(C)C[C@H]63)[C@@H](O)C[C@]54C)[C@]2(C)CO)[C@H](O)[C@@H](O[C@@H]2O[C@H](CO)[C@@H](O)[C@H](O)[C@H]2O)[C@H]1O	–	–	chronic-plus-binge ethanol-fed mice, plasma	dose not given, medium dose	baseline: AST over ALT	AST/ALT ratio	1.53 and 1.61 and 1.23 and 1.75
CN1CCN(C(=O)c2ccc([C@H]3[C@@H](F)[C@@H](F)C[C@@H](F)[C@H]3F)cc2)CC1	–	hepatocyte stability	cryopreserved rat hepatocytes	1 µM	–	hepatic clearance	10 mL/min/kg
CC(C)n1ncc2c(C(=O)NCC3(C)CNC3)cc(C3CC3)nc21	Enterovirus D68	time-of-addition	RD, US/MO/14-18947	3 µM, 0 to 0 h post infection	–	virus titre	200 PFU/mL and 400 PFU/mL
CC(C)C[C@@H](C=O)NC(=O)[C@H](CC(C)C)NC(=O)[C@H](CC(C)C)NC(=O)OCc1ccccc1	–	item: Ub(G76V)-GFP	–	0.156 µM	–	degradation rate constant	0.0197 min⁻¹
COc1ccc(-c2cncc(N[C@@H](C)c3cccc(NC(=O)c4cncc(C)c4)c3)n2)cc1OC	–	item: rno-miR-136-5p	rat SU5416/hypoxia model, lung	dose not given, unit not given	baseline: SU5416/hypoxia vehicle	delta delta Ct	-1.32
O=C(O)CNC(=O)Cc1ccccc1	–	–	ventricular cardiomyocytes, C57BL/6 mouse	dose not given, 0.176 s	–	sarcomere length	1.63 µm
CN1CCN(C(=O)c2ccc([C@H]3[C@@H](F)[C@@H](F)C[C@@H](F)[C@H]3F)cc2)CC1=O	–	hepatocyte stability	cryopreserved mouse hepatocytes	1 µM	–	hepatic clearance	21 mL/min/kg
CSCCNc1nc(SCCC(F)(F)F)nc2c1ncn2[C@@H]1O[C@H](COP(=O)(O)OP(=O)(O)C(Cl)(Cl)P(=O)(O)O)[C@@H](O)[C@H]1O	–	platelet aggregation, light transmission aggregometry	human patients, platelet-rich plasma	dose not given, 2 h, added: TRAP 5 µM	–	inhibition	36.6 ± 33.3%
CO[C@H]1CC[C@H](N2C(=O)CNc3ncc(-c4ccc(C(C)(C)O)nc4)nc32)CC1	–	flow cytometry	stimulated T cells, human, blood	45 mg single dose, 3 h, median	baseline: baseline	p4EBP1 change from baseline	-55.7%
COc1cc(Nc2ncc3c(n2)-c2ccc(Cl)cc2C(c2c(F)cccc2OC)=NC3)ccc1C(=O)O	–	–	mouse, OS-1 osteosarcoma xenograft	oral, 10.4 mg/kg, day 21	baseline: vehicle	relative tumour volume T/C	1.57
COc1cc(F)c([C@@H]2CNC(=O)[C@H]2NC(=O)Nc2ccccc2)c(F)c1	–	LV haemodynamics	rat, myocardial ischaemia-reperfusion	1 mg/kg, 1008 h, 6 weeks post-injury	–	LV dP/dtmax	6520 ± 704 mmHg/s
CC(C)[C@H](C(=O)Nc1ccc(C(=O)NO)cc1)c1ccccc1	–	volumetric MRI	human, left IAC schwannoma	dose not given, day 57	baseline: baseline	tumour volume change	15.3%
N#CC[C@H](C1CCCC1)n1cc(-c2ncnc3[nH]ccc23)cn1	–	–	Balb/c mice, oxazolone atopic dermatitis	day 17, unit not given	baseline: vehicle	ear thickness difference	-0.14
N#Cc1ccc2c(c1)[C@H]1CCCN(C(=O)c3ccc4[nH]cnc4c3)[C@H]1C2	–	–	human clinical trial	oral, 240 mg once daily, 28 d	–	HOMA-beta change	-1.4%
Cc1cn(-c2ccc3n(c2=O)CCN([C@@H](C)[C@@H]2CC[C@H](c4cc(F)c(Cl)cc4C(F)(F)F)O2)C3=O)cn1	–	item: amyloid beta 38	human, non-elderly, cerebrospinal fluid	100 mg once daily, 14 days, sampled 336 h	baseline: placebo	change from baseline	8.55%
FC(F)(F)CN1CC(n2cc(Oc3ccn4nc(Cl)cc4n3)cn2)C1	–	untargeted lipidomics, item: PC with ≥42 carbons	Abcd1-/y mice, brain and spinal cord	dose not given, 30 days	–	phosphatidylcholine level	decreased
N=C(N)NCCC[C@H](NC(=O)[C@H](CCCNC(=N)N)NC(=O)[C@H](CCCCN)NC(=O)[C@H](CCC(N)=O)NC(=O)[C@H](CCCCN)NC(=O)[C@H](Cc1ccc(O)cc1)NC(=O)[C@@H](N)CCCCN)C(=O)N[C@@H](CO)C(=O)N[C@@H](Cc1ccc(O)cc1)C(=O)N[C@@H](CCCCN)C(=O)O	–	air evaporative stimulus	dentin hypersensitivity patients	10 µg/tooth single, day 22, phase 1/2a	baseline: baseline, direction not given	Schiff sensitivity score change	-1 ± 0.89
N#Cc1ccc2c(-c3ccncc3)c(-c3ccc(F)cc3)nn2c1	–	kinase binding, competitor, MIB/MS competition, item: KIN3	Candida albicans cell lysate	10 µM	baseline: DMSO	log2 fold change	0.446

SMILES	target or system	assay	test system	setting	how to read	endpoint	value
C[C@@H](NC(=O)N1C(=O)[C@H](Cc2ccnc(N)c2)[C@H]1C(=O)O)C1CCCCC1	–	–	human	iv infusion, 0.3 mg/kg/h, 24 h	–	PT AUEC	1840 h·s
Cn1cc(C2=C(c3ccc(Cl)cc3Cl)C(=O)NC2=O)c2ccccc21	Trypanosoma brucei	cell growth	–	–	–	EC50	> 3 µM
c1ccc(-c2n[nH]cc2-c2ccnc3ccccc23)nc1	–	kinase binding, competitor, MIB/MS competition, item: KIN2	Candida albicans cell lysate	10 µM	baseline: DMSO	log2 fold change	1.47
C[C@@H]1C[C@H]2[C@@H]3CCC4=CC(=O)C=C[C@]4(C)[C@@]3(F)[C@@H](O)C[C@]2(C)[C@@]1(O)C(=O)CO	–	–	BALB/c mice, oxazolone atopic dermatitis	topical, 20 mg/ear, 336 h, day 14, unit not given	baseline: vehicle	ear thickness difference	-0.374
Cc1n[nH]c2ccc(-c3cc(OC[C@@H](N)Cc4ccccc4)cnc3-c3ccoc3)cc12	–	kinase binding, competitor, MIB/MS competition, item: ENV7	Candida albicans cell lysate	1 µM	baseline: DMSO	log2 fold change	0.16
CN[C@@H]1COc2c(S(=O)(=O)NC(=O)Nc3c4c(cc5c3CCC5)CCC4)cnn2C1	–	item: IL-18	human participants, whole blood ex vivo	450 mg single dose, 336 h, IL-18, circulating, adjusted for, added: LPS/ATP	baseline: baseline	inhibition	-48.7%
CC(c1cc2ccccc2s1)N(O)C(N)=O (stereo not drawn)	–	item: RvD5	human whole blood	3 µM, added: Escherichia coli	–	amount	2 pg/mL blood
C[C@H]1C[C@H]2CSC(N)=N[C@@]2(c2nc(NC(=O)c3ccc(OC(F)F)cn3)cs2)CO1	–	item: Aβx-40	healthy adults, plasma	400 mg single dose, 24 h post-dose	baseline: placebo	percent change from baseline	-67.4%
COc1cc2ncn(-c3cc(O[C@H](C)c4ccccc4Cl)c(C(N)=O)s3)c2cc1OC	Trypanosoma brucei	–	–	unit not given	baseline: pEC50 T. brucei minus pTC50 HepG2	selectivity	2.5
C=CCn1c(=O)c2cnc(Nc3ccc(N4CCN(C)CC4)cc3)nc2n1-c1ccc2c(n1)[C@@](O)(CC)CC2	–	–	Calu-6 xenograft, BALB/c nude mice	oral, 80 mg/kg once daily x 26, day 21	–	tumour volume difference	1140 ± 43.4 mm3
CC(C)NCC(O)c1ccc(O)c(O)c1 (stereo not drawn)	–	–	ventricular cardiomyocytes, C57BL/6 mouse	dose not given, 0.632 s	–	sarcomere length	1.72 µm
N#Cc1ccn2c(-c3ccncc3)c(-c3ccc(F)cc3)nc2c1	–	kinase binding, competitor, MIB/MS competition, item: RTK1	Candida albicans cell lysate	1 µM	baseline: DMSO	log2 fold change	0.00647
OC(CCN1CCCCC1)(c1ccccc1)C1CC2C=CC1C2 (stereo not drawn)	–	resting-state EEG	healthy elderly humans	oral, 4 mg, eyes closed, LS mean	baseline: baseline	change in EEG Alpha1-power Pz-O2	-35.6%
C[C@H](Oc1ccc(Br)cc1-c1ccon1)C(=O)O	–	muscle velocity recovery cycles	human, tibialis anterior muscle	1200 mg single dose, 3.5 h post-dose, frequency ramp, last response at 30 Hz	–	peak amplitude change	80.7%
NC(=O)c1cnc2[nH]ccc2c1N[C@@H]1[C@@H]2CC3C[C@H]1C[C@@](O)(C3)C2	–	CD8+ CD28+ naive T cells, flow cytometry	Japanese humans, peripheral blood	60 mg single dose	baseline: baseline	percent change	-1.87%
Cn1cc(Nc2nccc(-c3ccc4c(c3)CN(C3COC3)CC[C@H]4NC(=O)c3cn(C(C)(C)C)nn3)n2)cn1	–	item: glutathione redox reactions I	splenic B cells, mice	30 mg/kg, IgD-activated in vivo	baseline: vehicle, direction not given	pathway activation z-score	1.13
O=C(/C=C/c1ccc(O)c(O)c1/C=C/c1ccc(O)c(O)c1)O[C@H](Cc1ccc(O)c(O)c1)C(=O)O	–	–	isolated myocardium	1 µM	–	maximal dP/dt	1180 mmHg/s
CC(C)C[C@@H](C=O)NC(=O)[C@H](CC(C)C)NC(=O)[C@H](CC(C)C)NC(=O)OCc1ccccc1	Mus musculus	gene silencing, high-content imaging	LDR reporter GFP cells	confirmation, mean of two runs	–	EC50	5.62 µM
NCC(=O)Nc1cncc(-c2nn3c(=O)cc(N4CCNCC4)nc3s2)c1	–	ADP-induced platelet aggregation, light transmission aggregometry	human, stable CAD on aspirin, ex vivo platelets	subcutaneous, 0.04 mg/kg, 360 min post-dose, mean value, added: ADP 20 µM	–	inhibition	0%

A few entries again:
SMILES	target or system	assay	test system	setting	how to read	endpoint	value
CSCCNc1nc(SCCC(F)(F)F)nc2c1ncn2[C@@H]1O[C@H](COP(=O)(O)OP(=O)(O)C(Cl)(Cl)P(=O)(O)O)[C@@H](O)[C@H]1O	–	platelet aggregation, light transmission aggregometry	human patients, platelet-rich plasma	dose not given, 2 h, added: TRAP 5 µM	–	inhibition	36.6 ± 33.3%
CO[C@H]1CC[C@H](N2C(=O)CNc3ncc(-c4ccc(C(C)(C)O)nc4)nc32)CC1	–	flow cytometry	stimulated T cells, human, blood	45 mg single dose, 3 h, median	baseline: baseline	p4EBP1 change from baseline	-55.7%
